Assay results gathered from unrelated publications.
Lines come from different studies, so protocols differ. Numbers after ± are the reported error.
ESR1: Estrogen receptor (ESR1, Homo sapiens, UniProt P03372)
Sequence of UniProt P03372 (whole entry, looked up): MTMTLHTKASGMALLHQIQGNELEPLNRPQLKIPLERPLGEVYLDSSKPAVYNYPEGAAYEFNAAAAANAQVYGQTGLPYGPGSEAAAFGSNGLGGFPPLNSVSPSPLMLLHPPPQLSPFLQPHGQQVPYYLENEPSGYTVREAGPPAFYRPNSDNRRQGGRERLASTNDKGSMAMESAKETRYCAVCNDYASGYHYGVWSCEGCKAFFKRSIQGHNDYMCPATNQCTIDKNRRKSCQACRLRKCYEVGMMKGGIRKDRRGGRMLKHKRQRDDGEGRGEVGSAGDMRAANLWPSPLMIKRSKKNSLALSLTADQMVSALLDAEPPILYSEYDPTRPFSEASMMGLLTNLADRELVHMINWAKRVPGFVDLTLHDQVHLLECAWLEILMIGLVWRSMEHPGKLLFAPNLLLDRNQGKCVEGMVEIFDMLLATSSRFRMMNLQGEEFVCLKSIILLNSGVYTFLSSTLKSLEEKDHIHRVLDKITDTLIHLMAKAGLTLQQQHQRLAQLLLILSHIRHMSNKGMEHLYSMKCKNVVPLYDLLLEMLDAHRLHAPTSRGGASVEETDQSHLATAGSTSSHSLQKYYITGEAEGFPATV

CCCCCCSc1nc2c([nH]1)c(=S)n(C)c(=S)n2C — reporter activity (ESR1; reporter gene, ERE luciferase; T47D-KBluc; 10 µM, 24 h, added: estradiol 5 nM; baseline: maximal luciferase activity): 94%
CC/C(=C(\c1ccc(O)cc1)c1ccc(OCCN(C)CCOCCOCCOCCN(C)CCOc2ccc(/C(=C(/CC)c3ccccc3)c3ccc(O)cc3)cc2)cc1)c1ccccc1 — relative binding affinity (ESR1; ligand, radioligand competition binding; concentration not given, added: [3H]estradiol tracer; baseline: estradiol): 37.2%
CCCCCCCCCSc1nc2c([nH]1)c(=S)n(C)c(=O)n2C — reporter activity (ESR1; reporter gene, ERE luciferase; T47D-KBluc; 10 µM, 24 h, added: estradiol 5 nM; baseline: maximal luciferase activity): 23%
CCCc1c(-c2ccc(O)cc2)nn(-c2ccc(O)cc2)c1-c1ccc(OCCN2CCCCC2)cc1 — relative binding affinity (ESR1; competitive radioligand binding; concentration not given; baseline: estradiol, higher = stronger binding): 6.8 ± 1.1
CCCCC(C)Sc1nc2c([nH]1)c(=S)n(C)c(=O)n2C (stereo not drawn) — inhibition (ESR1; reporter gene; T47D-KBluc; 10 µM, added: estradiol): inactive
CCC(=C(c1ccc(O)cc1)c1ccc(OCCN(C)CCOCCOCCOCCOCCOCCN(C)CCOc2ccc(C(=C(CC)c3ccccc3)c3ccc(O)cc3)cc2)cc1)c1ccccc1 (mixture of isomers) — relative binding affinity (ESR1; competitor, radioligand competition binding; concentration not given, added: [3H]estradiol; baseline: estradiol): 10.9 ± 2.3%
Cn1c(=O)c2[nH]c(CCc3ccccc3)nc2n(C)c1=O — reporter activity (ESR1; reporter gene, ERE luciferase; T47D-KBluc; 10 µM, 24 h, added: estradiol 5 nM; baseline: maximal luciferase activity): 82%
Oc1ccc(-c2cc(-c3ccc(OCCN4CCCCC4)cc3)n(-c3ccc(O)cc3)n2)cc1 — relative binding affinity (ESR1; competitor, radioligand binding; concentration not given; baseline: estradiol): 5.92 ± 0.13
CCC(=C(c1ccc(Cl)cc1)c1ccc(OCCN2CCOCC2)cc1)c1ccc(Cl)cc1 — fold activation (ESR1; reporter gene, agonist, yeast estrogen screen; 1 µM; baseline: DMSO): 1.21 ± 0.07 fold
CCC(=C(c1ccc(O)cc1)c1ccc(OCCN(C)CCOCCOCCOCCOCCOCCOCCOCCOCCOCCN(C)CCOc2ccc(C(=C(CC)c3ccccc3)c3ccc(O)cc3)cc2)cc1)c1ccccc1 (mixture of isomers) — relative binding affinity (ESR1; ligand, radioligand competition binding; concentration not given, added: [3H]estradiol tracer; baseline: estradiol): 28.1 ± 3.7%
Oc1ccc(-c2cc(-c3ccc(OCCCN4CCCCC4)cc3)n(-c3ccc(O)cc3)n2)cc1 — relative binding affinity (ESR1; competitive radioligand binding; concentration not given; baseline: estradiol, higher = stronger binding): 1.75 ± 0.43
CCCCCCCCSc1nc2c([nH]1)c(=S)n(C)c(=S)n2C — reporter activity (ESR1; reporter gene, ERE luciferase; T47D-KBluc; 10 µM, 24 h, added: estradiol 5 nM; baseline: maximal luciferase activity): 77%
C[C@@H]1Cc2c([nH]c3ccccc23)[C@@H](c2c(F)cc(/C=C/C(=O)O)cc2F)N1C12CC(C1)C2 — ER degradation (ESR1; degrader, Western blot; MCF-7; 100 nM, 24 h): 73%
CCC(=C(c1ccc(O)cc1)c1ccc(OCCN(C)CCOCCOCCOCCOCCN(C)CCOc2ccc(C(=C(CC)c3ccccc3)c3ccc(O)cc3)cc2)cc1)c1ccccc1 (mixture of isomers) — relative binding affinity (ESR1; ligand, radioligand competition binding; concentration not given, added: [3H]estradiol tracer; baseline: estradiol): 14.9 ± 4%
CCC(=C(c1ccc(Cl)cc1)c1ccc(OCCN(CC)CC)cc1)c1ccc(OC)cc1 — β-galactosidase activity fold (ESR1; reporter gene, agonist, yeast estrogen screen; 1 µM; baseline: DMSO): 3.27
CCCCCSc1nc2c([nH]1)c(=S)n(C)c(=S)n2C — reporter activity (ESR1; reporter gene, ERE luciferase; T47D-KBluc; 10 µM, 24 h, added: estradiol 5 nM; baseline: maximal luciferase activity): 72%
CC(Cc1ccc(Cl)cc1)=C(c1ccc(Cl)cc1)c1ccc(OCCN2CCCC2)cc1 — fold activation (ESR1; reporter gene, agonist, yeast estrogen screen; 1 µM; baseline: DMSO): 1.05 ± 0.11 fold
O=S(=O)([C@H]1C[C@H]2O[C@@H]1C(c1ccc(O)cc1)=C2c1ccc(O)cc1)N(CC(F)(F)F)c1ccc(Cl)cc1 — relative binding affinity (ESR1; concentration not given; baseline: estradiol): 0.054
CCCCCSc1nc2c([nH]1)c(=O)n(C)c(=O)n2C — reporter activity (ESR1; reporter gene, ERE luciferase; T47D-KBluc; 10 µM, 24 h, added: estradiol 5 nM; baseline: maximal luciferase activity): 109%
CCC(=C(c1ccc(O)cc1)c1ccc(OCCN(C)CCOCCOCCOCCOCCOCCOCCOCCOCCOCCOCCOCCN(C)CCOc2ccc(C(=C(CC)c3ccccc3)c3ccc(O)cc3)cc2)cc1)c1ccccc1 (mixture of isomers) — relative binding affinity (ESR1; competitor, radioligand competition binding; concentration not given, added: [3H]estradiol; baseline: estradiol): 18 ± 5%
O=C1c2c(O)cc(O)cc2-c2c(-c3ccc(O)cc3)oc3cc(O)cc1c23 — reduction in protein level (ESR1; degrader, ELISA; MCF7; 10 µM, 24 h; baseline: vehicle): 72.8%
CCC(=C(c1ccc(Cl)cc1)c1ccc(OCCN2CCCC2)cc1)c1ccc(OC)cc1 — fold activation (ESR1; reporter gene, agonist, yeast estrogen screen; 1 µM; baseline: DMSO): 1.77 ± 0.16 fold
CC(=O)N[C@@H](Cc1c[nH]cn1)C(=O)N[C@@H](CCCCN)C(=O)N[C@@]1(C)C[C@H](C)C/C=C\CCC[C@@](C)(C(=O)N[C@@H](CC(C)C)C(=O)N[C@@H](CCC(N)=O)C(=O)N[C@@H](CC(=O)O)C(=O)N[C@@H](CO)C(N)=O)NC(=O)[C@H](CCCNC(=N)N)NC(=O)[C@H](Cc2c[nH]cn2)NC(=O)[C@H](CC(C)C)NC1=O — potency ratio (Estrogen receptor, ligand-binding domain; with SRC3 (ESR1, Homo sapiens, UniProt P03372); ERα/SRC3 interaction, inhibitor, TR-FRET; baseline: wild-type peptide): 12 fold
CCC(=C(c1ccc(Cl)cc1)c1ccc(OCCN2CCCC2)cc1)c1ccccc1 — fold activation (ESR1; reporter gene, agonist, yeast estrogen screen; 1 µM; baseline: DMSO): 1.13 ± 0.03 fold
CC/C(=C(\c1ccc(O)cc1)c1ccc(OCCN(C)CCOCCOCCOCCOCCOCCOCCOCCN(C)CCOc2ccc(/C(=C(\CC)c3ccccc3)c3ccc(O)cc3)cc2)cc1)c1ccccc1 — relative binding affinity (ESR1; competitor, radioligand competition binding; concentration not given, added: [3H]estradiol; baseline: estradiol): 32.3%
CC(Cc1ccc(Cl)cc1)=C(c1ccc(Cl)cc1)c1ccc(OCCN2CCCCC2)cc1 — fold activation (ESR1; reporter gene, agonist, yeast estrogen screen; 1 µM; baseline: DMSO): 1.1 ± 0.12 fold
CCCCCCCCSc1nc2c([nH]1)c(=O)n(C)c(=O)n2C — reporter activity (ESR1; reporter gene, ERE luciferase; T47D-KBluc; 10 µM, 24 h, added: estradiol 5 nM; baseline: maximal luciferase activity): 112%
